{"data": "Assay results pooled from the literature", "note": "Lines come from different studies, so protocols differ. “And” joins repeats or separate records; there may be more than shown."}
{"SMILES": "NCCCC[C@@H]1NC(=O)[C@@H](Cc2c[nH]c3ccccc23)NC(=O)[C@H](c2ccccc2)NC(=O)[C@@H]2C[C@@H](OC(=O)NCCN)CN2C(=O)[C@H](Cc2ccccc2)NC(=O)[C@H](Cc2ccc(OCc3ccccc3)cc2)NC1=O", "test system": "healthy volunteers, male", "setting": "600 µg twice daily, 8.0 h, post hoc", "measurement": "placebo-corrected QTcF change", "value": "3.9 ms"}
{"SMILES": "CC1(C)[C@H](C=C(Cl)Cl)[C@H]1C(=O)OCc1cccc(Oc2ccccc2)c1", "assay": "item: CYP2C19", "test system": "human, age 6 months, recombinant human CYP2C19", "setting": "0.1 µM", "measurement": "enzyme contribution to clearance", "value": "0.23%"}
{"SMILES": "COc1cccc(Oc2ccccc2NC(=O)CNC(=O)c2cccc3ccccc23)c1", "test system": "esterase-deficient SCID mice, male", "setting": "oral, 100 mg/kg/day, 14 days, toxicity study", "measurement": "serum globulin", "value": "2.3 g/dL and 2.4 g/dL and 2.2 g/dL"}
{"SMILES": "CN1CCN(c2cccc3c2CCN(C(=O)/C=C/c2c(-n4cnnn4)ccc(Cl)c2F)[C@@H]3C(=O)Nc2ccc(C(=O)O)cc2)C(=O)C1", "test system": "healthy human subjects", "setting": "intravenous infusion, 1.5 mg/h, 2 h", "measurement": "deaths", "value": "0%"}
{"SMILES": "COc1ccnc(C(=O)N[C@H]2COC(=O)[C@H](Cc3ccccc3)[C@@H](OC(=O)C(C)C)[C@H](C)OC2=O)c1OCOC(=O)C(C)C", "assay": "liver toxicity", "test system": "mouse", "setting": "oral, 90 day", "measurement": "NOAEL", "value": "39.6 mg/kg/day"}
{"SMILES": "CC(=O)c1c(C)c2cnc(Nc3ccc(C4CCN(CCS(C)(=O)=O)CC4)cn3)nc2n(C2CCCC2)c1=O", "test system": "HR+/HER2- advanced breast cancer patients", "setting": "oral, 50 mg", "measurement": "patients with any TRAE", "value": "100%"}
{"SMILES": "COc1ccc2nc3cc(Cl)ccc3c(Nc3cc(CN4CCCC4)c(O)c(CN4CCCC4)c3)c2n1", "test system": "mouse, blood", "setting": "oral, 57 mg/kg", "measurement": "white blood cell count", "value": "8.22 10⁹/L"}
{"SMILES": "COc1cc2c(Oc3ccc4[nH]c(C)cc4c3F)ccnc2cc1OCC1(N)CC1", "test system": "paediatric refractory sarcoma patients", "setting": "12 mg", "measurement": "ALP elevation incidence", "value": "45.5%"}
{"SMILES": "C=CC(=O)Nc1cc(Nc2nccc(Nc3cc(Cl)c(F)cc3C(C)(C)O)n2)c(OC)cc1N1CC[C@@H](N(C)C)C1", "test system": "human", "setting": "oral, dose not given, phase I clinical", "measurement": "patients with adverse event Rash", "value": "44.1%"}
{"SMILES": "COc1ncccc1-c1cnn2ccc(N3CCN(C(=O)OC(C)C)CC3)nc12", "test system": "mouse nerve ligation model, brain", "setting": "oral, 3 mg/kg, 180 min after last dose, repeat dosing day 1", "measurement": "drug concentration", "value": "2300 nM"}
{"SMILES": "CO[C@H]1C[C@@H]2CC[C@@H](C)[C@@](O)(O2)C(=O)C(=O)N2CCCC[C@H]2C(=O)O[C@H]([C@H](C)C[C@@H]2CC[C@@H](OC(=O)NCCOCCOCCOCCOCCOCCOCCOCCOCCC(=O)N3CCc4cc(Cn5nc(-c6ccc7oc(N)nc7c6)c6c(N)ncnc65)ccc4C3)[C@H](OC)C2)C[C@@H](O)[C@H](C)/C=C(\\C)[C@@H](O)[C@@H](OC)C(=O)[C@H](C)C[C@H](C)/C=C/C=C/C=C/1C", "test system": "patients with advanced solid tumours", "setting": "intravenous, 6 mg weekly, grade 3 or higher", "measurement": "AE leading to dose interruption", "value": "41.7%"}
{"SMILES": "CCC[C@@](N)(CO)CCc1ccc(OCCCCCC(C)C)cc1", "test system": "hound dogs, male", "setting": "oral, 20 mg/kg, capsule, fed state, geometric mean", "measurement": "AUC(0-inf)", "value": "25.3 µM·h"}
{"SMILES": "O=C(c1ccc(F)c(F)c1Nc1ccc(I)cc1F)N1CC(O)([C@@H]2CCCCN2)C1", "test system": "patients aged 2 to 6 years", "setting": "oral, dose not given", "measurement": "AE leading treatment withdrawal", "value": "0%"}
